{"data": "Measurements collected from several papers", "note": "Each numbered part is a random draw from the data of one study; scales do not carry over between parts. Positions count from the first letter of the parent shown."}
{"data": "Sample 1", "target": "Histone acetyltransferase KAT6A, winged helix 1, GST fusion (KAT6A, Homo sapiens, UniProt Q92794, residues 1-85)", "method": "protein binding microarray", "molecule type": "double-stranded DNA, one strand shown", "sample": "in vitro", "concentration": "not given", "notes": "8-mer, flanks averaged, mean of 2 arrays, mostly near background", "relative to": "not given", "reading": "higher = stronger binding", "Construct (chain)": "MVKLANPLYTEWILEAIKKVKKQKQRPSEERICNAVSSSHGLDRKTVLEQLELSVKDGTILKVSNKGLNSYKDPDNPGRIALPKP"}
{"Oligonucleotide": "GAGGTTAC", "E-score": 0.0746}
{"Oligonucleotide": "CAATATCA", "E-score": -0.0325}
{"Oligonucleotide": "TAAGACCA", "E-score": -0.132}
{"Oligonucleotide": "CCCGGGTC", "E-score": 0.371}
{"Oligonucleotide": "AATGAGTA", "E-score": 0.0425}
{"Oligonucleotide": "CTGACGGC", "E-score": 0.354}
{"Oligonucleotide": "AAGTCTAC", "E-score": -0.115}
{"Oligonucleotide": "CTGTTCGC", "E-score": -0.00331}
{"Oligonucleotide": "ATTATACA", "E-score": -0.181}
{"Oligonucleotide": "AATGTGGT", "E-score": -0.179}
{"Oligonucleotide": "GGCCCCAA", "E-score": 0.051}
{"Oligonucleotide": "CACTAGTA", "E-score": 0.017}
{"Oligonucleotide": "GCAGAACC", "E-score": 0.0478}
{"Oligonucleotide": "CACTCGAA", "E-score": -0.364}
{"Oligonucleotide": "ATGAATTA", "E-score": -0.123}
{"Oligonucleotide": "CGGGGGAC", "E-score": 0.302}
{"Oligonucleotide": "GTCTGCTA", "E-score": -0.272}
{"Oligonucleotide": "ATAAGGAT", "E-score": -0.379}
{"Oligonucleotide": "ATTAATGA", "E-score": 0.00357}
{"Oligonucleotide": "CGCCGGCC", "E-score": 0.455}
{"Oligonucleotide": "CTCCCCCA", "E-score": -0.0419}
{"Oligonucleotide": "ATACGCAA", "E-score": 0.106}
{"Oligonucleotide": "ATAATGTG", "E-score": -0.115}
{"Oligonucleotide": "TAAACTCA", "E-score": -0.127}
{"Oligonucleotide": "CAGTGTAG", "E-score": -0.105}
{"data": "Sample 2", "target": "CCNB1, cyclin fold, Cln2 fusion (human)", "method": "yeast growth competition, sequencing", "sample": "yeast", "notes": "weak parent motif", "relative to": "not given", "reading": "higher = stronger binding", "starting sequence": "AKAP12 docking peptide (human); GSPLKKLFTSTGL"}
{"Variant": "G12A", "normalised enrichment score": -0.659}
{"Variant": "F8L", "normalised enrichment score": -0.217}
{"Variant": "K6A", "normalised enrichment score": -0.56}
{"Variant": "G1A", "normalised enrichment score": -0.641}
{"Variant": "L4A", "normalised enrichment score": 0.106}
{"Variant": "S2A", "normalised enrichment score": 0.842}
{"Variant": "S10A", "normalised enrichment score": 0.856}
{"data": "Sample 3", "target": "POU domain, class 5, transcription factor 1, POU domain (Pou5f1, Mus musculus, UniProt P20263, residues 131-289)", "method": "Spec-seq", "molecule type": "double-stranded DNA, one strand shown", "sample": "in vitro", "concentration": "not given", "notes": "whole probe, mean of replicates", "relative to": "not given", "reading": "lower = stronger binding", "shared flanks, not repeated": "GAGTCGTCTCGTCAGCAC … CCGTAGAGCACTCAGGTC", "sequence of UniProt P20263 (131-289, looked up)": "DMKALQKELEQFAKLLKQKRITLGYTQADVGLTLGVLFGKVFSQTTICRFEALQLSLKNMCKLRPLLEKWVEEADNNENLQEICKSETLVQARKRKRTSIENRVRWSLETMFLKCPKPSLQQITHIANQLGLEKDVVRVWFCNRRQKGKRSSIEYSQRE"}
{"Oligonucleotide": "ATTAATAT", "relative binding energy [ln ratio]": -0.707}
{"Oligonucleotide": "GAGCTAAT", "relative binding energy [ln ratio]": 0.913}
{"Oligonucleotide": "ATGCTGGT", "relative binding energy [ln ratio]": 0.658}
{"Oligonucleotide": "ATGCTTCG", "relative binding energy [ln ratio]": 0.585}
{"Oligonucleotide": "ATGCCACC", "relative binding energy [ln ratio]": 0.702}
{"Oligonucleotide": "CTGCTAAT", "relative binding energy [ln ratio]": 0.369}
{"Oligonucleotide": "ATGCCCTA", "relative binding energy [ln ratio]": 0.358}
{"Oligonucleotide": "GGAATAAT", "relative binding energy [ln ratio]": -1.14}
{"Oligonucleotide": "ATCCGTAT", "relative binding energy [ln ratio]": 0.525}
{"Oligonucleotide": "TAATTAAT", "relative binding energy [ln ratio]": -1.88}
{"Oligonucleotide": "ATGCCTGG", "relative binding energy [ln ratio]": 0.747}
{"Oligonucleotide": "ATCTCTAT", "relative binding energy [ln ratio]": 0.512}
{"Oligonucleotide": "ATGCACCA", "relative binding energy [ln ratio]": 0.0437}
{"Oligonucleotide": "ATGCGCCT", "relative binding energy [ln ratio]": 0.429}
{"Oligonucleotide": "CCGATAAT", "relative binding energy [ln ratio]": 0.806}
{"data": "Sample 4", "target": "RNA binding protein fox-1 homolog 2, RRM domain, GST-SBP tag (RBFOX2, Homo sapiens, UniProt O43251-10, residues 100-194)", "method": "RNA Bind-n-Seq", "molecule type": "RNA", "sample": "in vitro", "concentration": "365 nM", "notes": "natural RNA segment, single round, ends assumed", "relative to": "no-protein control", "reading": "higher = stronger binding", "Residues (chain)": "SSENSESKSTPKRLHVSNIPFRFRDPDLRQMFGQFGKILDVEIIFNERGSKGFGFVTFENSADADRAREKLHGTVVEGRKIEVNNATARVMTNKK"}
{"Oligonucleotide": "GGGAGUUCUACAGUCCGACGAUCUGAGGGACCAUCUACCCCCCACCUAUCCUCGAGCACCAGGCUUGUGAGAUGAGACAGAGGGUGGAGGAAGCCAUGAGGGAUGGUCCCCACGGAUCCUGCCGAGAGCCACGUGGAAUUCUCGGGUGCCAA", "RBNS enrichment (R)": 4.81}
{"Oligonucleotide": "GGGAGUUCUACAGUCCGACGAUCCAAGACCCCAAACAGUACUUUUACUUUGUUUGUACAAAAACAAAGACAUAUAGCCAAUACAAAUCAAAUGCCGGAGGUGUUUGAUGCCAUAUUUGCAAAUUGCCAUCUAUUGGAAUUCUCGGGUGCCAA", "RBNS enrichment (R)": 0.355}
{"Oligonucleotide": "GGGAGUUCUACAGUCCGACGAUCCACCCCCUGCUGGGUCUCCUGCAUUCCACGGAGCCCCUGCUGCCAGGGCGGUGUCUGAGCCUGCCGGCGCCACCUGGGCCCCGGCCCUUGAGGUACUCCCUGAGCAGGACUGGAAUUCUCGGGUGCCAA", "RBNS enrichment (R)": 0.332}
{"Oligonucleotide": "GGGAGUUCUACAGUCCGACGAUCUUUCCAGGCUGCAGCCGUAACGCACUUUCUCCCAGGCUGAGGGCGGGUGUUCUGGGGUGUCUGCCCUCUGUCGGCCCUGCUUCCUGCCAGGACGUGGCCUCUUCCGAUCCUGGAAUUCUCGGGUGCCAA", "RBNS enrichment (R)": 0.413}
{"Oligonucleotide": "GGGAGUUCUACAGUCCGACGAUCUCAAAAUCAGUAACUUUUAAUCUAGGAAAUUGAAAAAUAUUAAGUUGCAAAGCAAAAAAAGGUAUUUUCUUGAAAAUACUAUUUAAUGUUUAACUAGACUAUAGGUAGUUUGGAAUUCUCGGGUGCCAA", "RBNS enrichment (R)": 0.465}
{"Oligonucleotide": "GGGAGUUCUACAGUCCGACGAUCCUUUGGAUGGAAACCAUUCUUUAUAUUGAUGGACAGUUUUCAGAAAACUAUCAACAGGUGUACAAGAGUCAUGUUCAUUUAGAAUAGAGCAGUGUAAAUGCUAGGCCUCAUGGAAUUCUCGGGUGCCAA", "RBNS enrichment (R)": 0.297}
{"Oligonucleotide": "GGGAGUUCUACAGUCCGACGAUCGCCCCAGUAUGGAAGAAAGACUUAACCUGUGGGAAAAACAAUUAUCUUUUUAAAUAGAGAGCUAUGUAUUUUUCAUGUAAUCUGUGAUUUCAAGAAGAUGAUUGGAGUAUUGGAAUUCUCGGGUGCCAA", "RBNS enrichment (R)": 0.423}
{"Oligonucleotide": "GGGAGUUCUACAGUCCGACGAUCUUUGUUUGUUUGUUUGUUUGUUUGUUUUUGGCCCCCACGACAAGUCUUCUACUCUAGAAGAAAGACUUUGGAAGCAGCUGCUGCUGCUGCCACCACUCCUGUCAGCAAGUUGGAAUUCUCGGGUGCCAA", "RBNS enrichment (R)": 4.33}
{"Oligonucleotide": "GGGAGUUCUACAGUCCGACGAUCGAAUCAGGUGCCCGGAGUCUUUGGAGCUCUGAAACUCUCGGCUAUGCAAGACCCCGGGUCCUUGCAGCAGAGCUUCUCAUGGGUGGCUUGCUGGGGCCGGGCCGAGGACUUGGAAUUCUCGGGUGCCAA", "RBNS enrichment (R)": 0.353}
{"Oligonucleotide": "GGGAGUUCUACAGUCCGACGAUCUUUAAAGCCACAGUUGAGAGGCCACCCAUUGCCCGGCGCCUGGACAGUGAUCAUCUUGUUCAUCUUGUUCAGUCCUUUCUUGUGUGAUUGGAAUUAUUCAUCCCCUUUGAUGGAAUUCUCGGGUGCCAA", "RBNS enrichment (R)": 0.317}
{"Oligonucleotide": "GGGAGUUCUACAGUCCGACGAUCUUCGCACAUUUAAGCAUCUUUGUUUUACAUAAAAUUAGAGUAUGAAAACCAGUGUUCAAUUUUUUAUCUUGUUGAGCUUGUAAAAUGCCAGCAAUUUAAAACUAGGACUUUGGAAUUCUCGGGUGCCAA", "RBNS enrichment (R)": 0.368}
{"Oligonucleotide": "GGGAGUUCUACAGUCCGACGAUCCUUAGGAAGCCCCUUCGCUUCAGUUGCUCGCUUCUGGGUGUGCUCCCUUCGAAGGCCCAGAUAAGACAGGGAACACUUGUGAGCACACAGAGCAGCAUCUGAUGCCCUGUUGGAAUUCUCGGGUGCCAA", "RBNS enrichment (R)": 0.216}
{"note": "Repeated from above (sample 3):"}
{"Oligonucleotide": "ATTAATAT", "relative binding energy [ln ratio]": -0.707}
{"Oligonucleotide": "GAGCTAAT", "relative binding energy [ln ratio]": 0.913}
{"Oligonucleotide": "ATGCTGGT", "relative binding energy [ln ratio]": 0.658}
{"Oligonucleotide": "ATGCTTCG", "relative binding energy [ln ratio]": 0.585}
{"Oligonucleotide": "ATGCCACC", "relative binding energy [ln ratio]": 0.702}
{"Oligonucleotide": "CTGCTAAT", "relative binding energy [ln ratio]": 0.369}
